Measured values from different studies.
Compare with care: the assays were run in different laboratories.
Organism: Pseudomonas aeruginosa

`CCn1cc(C(=O)NCCNCCO)c(=O)c2cc(OC)c(OCc3cc(F)cc(F)c3)cc21` gave an MIC of under 0.25 µg/mL (ATCC 27853; ≥80% growth inhibition).
The MIC of `CNC(C)C1CCC(N)C(OC2C(N)CC(N)C(OC3OCC(C)(O)C(NC)C3O)C2O)O1` (stereo not shown) is reported as 1 µg/mL (microbial growth; ATCC27853).
With `O=C(Nc1ccc(Br)c(C(F)(F)F)c1)c1cc(Cl)ccc1O` the MIC was over 64 µg/mL (microbial growth, broth dilution; ATCC27853).
With `CCc1cc(=O)c2c(OCC(O)CN3CCCCC3)c3ccoc3c(OC)c2o1` (stereo not shown) the MIC was over 256 µg/mL (broth microdilution; ATCC 15442; 19 h, 35 °C).
With `CC(C)C[C@H](NC(=O)CNC(=O)[C@H](C)NC(=O)c1ccc(S[C@@H]2O[C@H](CO)[C@H](O)[C@H](O)[C@H]2O)cc1)C(=O)N[C@@H](C)C(=O)NC[C@@H]1CCN(c2cc3c(cc2F)c(=O)c(C(=O)O)cn3C2CC2)C1` the MIC was 1.56 to 3.13 µM (broth microdilution; PA14, culture supernatant in PBS; 10% supernatant, pre-incubation under 10 min).
`C[C@H]1COc2c(N3CCN(C)CC3)c(F)cc3c(=O)c(C(=O)O)cn1c23` gave an MIC of 1 µg/mL (microbial growth, broth dilution; ATCC27853).
`CC(C)C[C@H](NC(=O)CNC(=O)[C@H](C)NC(=O)c1ccc(S(=O)(=O)NC[C@H]2O[C@@H](C)[C@@H](O)[C@@H](O)[C@@H]2O)cc1)C(=O)N[C@@H](C)C(=O)N[C@H]1CCN(c2cc3c(cc2F)c(=O)c(C(=O)O)cn3C2CC2)C1` gave an MIC of 0.39 to 3.13 µM (broth microdilution; PA14, P. aeruginosa supernatant in PBS; 10% supernatant, 3 h preincubation).
With `gentamicin` the MIC was 0.5 µg/mL (ATCC 27853; 18 h, pH 7).
`CCc1cc(=O)c2c(OCC(O)CN(CC)CC)c3ccoc3c(OC)c2o1` (stereo not shown) gave an MIC of over 256 µg/mL (broth microdilution; ATCC 15442; 19 h, 35 °C).
`CC(C)C[C@H](NC(=O)CNC(=O)[C@H](C)NC(=O)c1ccc(S(=O)(=O)NC[C@H]2O[C@@H](C)[C@@H](O)[C@@H](O)[C@@H]2O)cc1)C(=O)N[C@@H](C)C(=O)NC[C@@H]1CCN(c2cc3c(cc2F)c(=O)c(C(=O)O)cn3C2CC2)C1` gave an MIC of 1.56 to 3.13 µM (broth microdilution; PA14, 50% human plasma with 10% P. aeruginosa supernatant; 3 h preincubation).
`O=C(Nc1ccccc1)c1cc(Cl)ccc1O` gave an MIC of over 64 µg/mL (microbial growth, broth dilution; ATCC27853).
With `CC(C)C[C@H](NC(=O)CNC(=O)[C@H](C)NC(=O)c1ccc(S[C@@H]2O[C@H](CO)[C@H](O)[C@H](O)[C@H]2O)cc1)C(=O)N[C@@H](C)C(=O)N[C@H]1CCN(c2cc3c(cc2F)c(=O)c(C(=O)O)cn3C2CC2)C1` the MIC was 0.78 to 6.25 µM (broth microdilution; PA14, human plasma with LB in PBS; 50% plasma, 10% LB, pre-incubation 3 h).
For `O=C(Nc1ccc(F)c(F)c1)c1ccccc1O`, the MIC was over 64 µg/mL (microbial growth, broth dilution; ATCC27853).

Repeated from above:
`C[C@H]1COc2c(N3CCN(C)CC3)c(F)cc3c(=O)c(C(=O)O)cn1c23` gave an MIC of 1 µg/mL (microbial growth, broth dilution; ATCC27853).
